# Measured values collected from several papers.
# Compare with care: the assays were run in different laboratories. Numbers after ± are the reported error.
Structure (SMILES),cell line,test,setting,scale,measurement,result
CC(=O)Oc1ccc(/C=C/C(=O)Nc2nc(=O)n([C@@H]3O[C@H](C)[C@@H](OC(C)=O)[C@H]3OC(C)=O)cc2F)cc1,ASPC1,"cell viability, MTT",,reference: NHDF fibroblasts over ASPC1,selectivity index,1.69
CN1/C(=C/C=C2\CCCC(/C=C/C3=[N+](C)c4ccccc4C3(C)C)=C2SCCC(=O)N[C@@H](Cc2ccccc2)C(=O)N[C@@H](Cc2ccccc2)C(=O)N[C@@H](CCCCNC(=O)CCC(=O)O)C(=O)N[C@@H](CCCCNC(=O)CCCC[C@@H]2SC[C@@H]3NC(=O)N[C@@H]32)C(=O)O)C(C)(C)c2ccccc21,4T1,CCK-8,"20 µM, 4 h then 24 h, with: 808 nm laser 1 W/cm2 5 min",reference: untreated,viability,22.1%
O=C1/C(=C/c2ccc3c(c2)OCCO3)SC(=S)N1[C@@H]1O[C@H](CO)[C@@H](O)[C@H](O)[C@H]1O,HepG2,refers to: Casp-9,"IC50, 48 h",reference: untreated,mRNA fold change,8.4 fold
Cc1ccc(-n2nc3c(=O)n(CCCC(=O)NCC(C)c4ccccc4)nc(C)c3c2C)cc1 (stereo not drawn),MIA PaCa-2,annexin V/PI flow cytometry,"100 µM, 48 h",,apoptotic cells,38.3%
CC12CCC3(CCC(=O)NCCCNc4ccnc5cc(Cl)ccc45)C(C)(OOC3(C)O1)O2,HL-60,"cell growth or viability, resazurin","10 µM, 48 h",,inhibition,6.3%
CC[C@H](C)[C@H](NC(=O)[C@H](CCCNC(=N)N)NC(=O)[C@H](CCCNC(=N)N)NC(=O)[C@H](CC(C)C)NC(=O)[C@H](Cc1c[nH]c2ccccc12)NC(=O)[C@H](CCCCN)NC(=O)[C@H](CCCNC(=N)N)NC(=O)[C@H](CCCCN)NC(=O)[C@H](CCCNC(=N)N)NC(=O)[C@H](CCCNC(=N)N)NC(=O)CN)C(=O)NCC(=O)N[C@@H](CCCCN)C(=O)NCC(=O)N[C@H](C(=O)N[C@@H](CCCCN)C(=O)N[C@H](C(=O)N[C@H](C(=O)NCC(=O)NCC(=O)N[C@@H](C)C(=O)N[C@@H](C)C(=O)N[C@@H](CC(C)C)C(=O)N[C@@H](CC(=O)O)C(=O)N[C@@H](Cc1c[nH]cn1)C(=O)N[C@@H](CC(C)C)C(N)=O)[C@@H](C)CC)[C@@H](C)CC)C(C)C,HL-60,,"32 µg/mL, 1 min",,lysed cells,12%
CCCc1cc(OC)c2c(c1)OCO2,HCT-116,cell growth or viability,72 h,,GI50,> 250000 nM
CC/C=C\C/C=C\C/C=C\C/C=C\C/C=C\C/C=C\CCC(=O)Nc1ccn(C2OC(CO)C(O)C2(F)F)c(=O)n1 (stereo not drawn),HOP-62,NCI60 screen,,,CC50,35200 nM
O=C(O)CCC(NP(=O)(O)OCCC[C@@H](NC(=O)CCC(NC(=O)CCCCCNC(=O)c1ccc([18F])cc1)C(=O)O)C(=O)O)C(=O)O (stereo partly drawn),CWR22Rv1,,2 h,,internalized fraction,84.2%
CCC[P+](c1ccccc1)(c1ccccc1)c1ccccc1,HCT-116,"cell growth or viability, MTT",72 h,,GI50,1500 nM
CC[C@H]1OC(=O)[C@H](C(C)C)NC(=O)[C@H](C)OC(=O)[C@@H](C(C)C)NC(=O)[C@@H](C(C)C)OC(=O)[C@H](C(C)C)NC(=O)[C@H](C)OC(=O)[C@@H](C(C)C)NC(=O)[C@@H](C(C)C)OC(=O)[C@H](C(C)C)NC(=O)[C@H](C)OC(=O)[C@@H](C(C)C)NC1=O,U-87 MG,PI staining flow cytometry,"0.8 µM, 12 h",reference: untreated,G0/G1 phase cells increase,40.9%
NC(=O)CCCCC=C1C(=O)OC1CCc1ccccc1 (stereo not drawn),ABHD16A-/- mouse peritoneal macrophages,ELISA,"1 µM, 4 h, with: basal or LPS",,IL-6 and TNF-α secretion,no effect
C[C@H]1C(OCCCCCC[P+](c2ccccc2)(c2ccccc2)c2ccccc2)O[C@@H]2O[C@@]3(C)CCC4[C@H](C)CCC1[C@]42OO3 (stereo partly drawn),T24,MTT,72 h,reference: HUVEC IC50 over T24 IC50,selectivity index,2.07
CC[C@H](C)[C@H](NC(=O)[C@H](Cc1ccccc1)NC(=O)[C@H](CC(=O)O)NC(=O)[C@H](CCCCN)NC(=O)[C@H](C)NC(=O)[C@H](CCCCN)NC(=O)[C@H](CC(N)=O)NC(=O)[C@H](CC(C)C)NC(=O)[C@H](Cc1c[nH]c2ccccc12)NC(=O)[C@H](CCC(=O)O)NC(=O)[C@H](CCCCN)NC(=O)[C@@H](NC(=O)CNC(=O)[C@H](C)N)[C@@H](C)O)C(=O)N[C@@H](CCCCN)C(=O)N[C@@H](CCC(=O)O)C(=O)N[C@@H](CCCCN)C(=O)NCC(=O)N1CCC[C@H]1C(=O)NCC(=O)N[C@@H](CCSC)C(=O)N[C@@H](CC(C)C)C(=O)N[C@@H](CO)C(=O)N[C@@H](C)C(=O)N[C@@H](C)C(=O)N[C@@H](C)C(=O)N[C@@H](CC(N)=O)C(=O)N[C@@H](C)C(=O)N[C@@H](C)C(=O)N[C@@H](CC(C)C)C(=O)N[C@@H](CC(N)=O)C(=O)O,mouse DRG neurons,,"10 µM, 90 s",,intracellular calcium increase,inactive
Cc1cc(Nc2cc(CN3CCN(C)CC3)cc(NC(=O)c3cccc(Nc4ccnc5ccccc45)c3)c2)nc(N)n1,"NCI-H1299, NCI-H596, NCI-H1975",,concentration not given,,p53 and p21 levels,no effect
CC[C@H](C)[C@H](NC(=O)[C@@H](NC(=O)[C@@H](N)C(C)C)C(C)C)C(=O)NCC(N)=O,PC-12,"Aβ42-induced neurotoxicity, inhibitor, MTT","concentration not given, 6 h, 37 °C, peptide to Aβ42 1:2, with: Aβ42 2 µM",reference: untreated cells,viability,88.5%
COC(=O)[C@H](CC(C)C)NC(=O)[C@@H]1CCCN1C(=O)[C@@H](NC(=O)[C@H](CCC(=O)C=[N+]=[N-])NC(=O)OCc1ccccc1)C(C)C,YAC128 mouse medium spiny neurons,,"concentration not given, with: NMDA",reference: wild-type neurons,increase in protection,7%
CC[C@H](C)[C@H](NC(=O)[C@@H](NC(=O)[C@H](CC(N)=O)NC(=O)[C@H](CCC(N)=O)NC(=O)[C@@H]1CCCN1C(=O)[C@@H](NC(=O)[C@H](Cc1ccc(O)cc1)NC(=O)CNC(=O)[C@H](Cc1ccc(O)cc1)NC(=O)[C@H](Cc1c[nH]c2ccccc12)NC(=O)[C@H](Cc1c[nH]cn1)NC(=O)[C@H](Cc1ccc(O)cc1)NC(=O)CNC(=O)CCOCCOCCOCCNC(=S)Nc1ccc(C2=[N+]3C(=C(c4ccc(OC)cc4)c4cc(Cl)c(-c5ccc(OC)cc5)n4[B-]3(F)F)C=C2Cl)cc1)[C@@H](C)O)C(C)C)C(N)=O,HEp-2,,"10 µM, 24 h",reference: unconjugated BODIPY 5,cellular uptake,~30 fold
CC(C)CC(O)(CC(C)C)c1cn(C(=O)N2CCCC2)nn1,mouse T-cells,"N-terminal labeled proteins, N-terminal enrichment proteomics, refers to: PTPN18","1 nM, 6 h",reference: DMSO,SILAC ratio,3.58 ± 0.45
CC(=O)N1CCCC[C@H]1C(=O)NC(C)(C)C(=O)N1CCCC[C@H]1C(=O)NC(C)(C)C(=O)NC(C)(C)C(=O)N[C@@H](CC(C)C)C(=O)NCCC(=O)N[C@@H](C)C(=O)NC(C)(C)C(=O)NC(C)(C)C(=O)N1CCCC[C@H]1C(=O)NC(C)(C)C(=O)NCC(=O)N[C@@H](CC(C)C)C(=O)NC(C)(C)C(=O)N[C@@H](CC(C)C)C[N+]1=C2CCCN2CCC1,39 cancer cell lines,,"48 h, mean over panel",,GI50,437 nM
C[C@H]1C(OCCCCCCCC[P+](c2ccccc2)(c2ccccc2)c2ccccc2)O[C@@H]2O[C@@]3(C)CCC4[C@H](C)CCC1[C@]42OO3 (stereo partly drawn),J82 and T24,"western blot, refers to: p21","concentration not given, 48 h",,protein level,increased

# Some of these lines once more:
Structure (SMILES),cell line,test,setting,scale,measurement,result
CC12CCC3(CCC(=O)NCCCNc4ccnc5cc(Cl)ccc45)C(C)(OOC3(C)O1)O2,HL-60,"cell growth or viability, resazurin","10 µM, 48 h",,inhibition,6.3%
CC[C@H](C)[C@H](NC(=O)[C@@H](NC(=O)[C@H](CC(N)=O)NC(=O)[C@H](CCC(N)=O)NC(=O)[C@@H]1CCCN1C(=O)[C@@H](NC(=O)[C@H](Cc1ccc(O)cc1)NC(=O)CNC(=O)[C@H](Cc1ccc(O)cc1)NC(=O)[C@H](Cc1c[nH]c2ccccc12)NC(=O)[C@H](Cc1c[nH]cn1)NC(=O)[C@H](Cc1ccc(O)cc1)NC(=O)CNC(=O)CCOCCOCCOCCNC(=S)Nc1ccc(C2=[N+]3C(=C(c4ccc(OC)cc4)c4cc(Cl)c(-c5ccc(OC)cc5)n4[B-]3(F)F)C=C2Cl)cc1)[C@@H](C)O)C(C)C)C(N)=O,HEp-2,,"10 µM, 24 h",reference: unconjugated BODIPY 5,cellular uptake,~30 fold
C[C@H]1C(OCCCCCC[P+](c2ccccc2)(c2ccccc2)c2ccccc2)O[C@@H]2O[C@@]3(C)CCC4[C@H](C)CCC1[C@]42OO3 (stereo partly drawn),T24,MTT,72 h,reference: HUVEC IC50 over T24 IC50,selectivity index,2.07
